Published values gathered from unrelated publications.
Protocols differ between the studies behind these lines. Several values in a cell are separate wells, animals, samples, runs or records. ± marks the error that the study gave.
MGLL: Monoglyceride lipase (MGLL, Homo sapiens, UniProt Q99685)
Tpo: Thyroid peroxidase (Tpo, Rattus norvegicus, UniProt P14650)
CYP2C19: Cytochrome P450 2C19 (CYP2C19, Homo sapiens, UniProt P33261)
CACNA1I: Voltage-dependent T-type calcium channel subunit alpha-1I (CACNA1I, Homo sapiens, UniProt Q9P0X4)
CDPK1: Calcium-dependent protein kinase 1 (CDPK1, Plasmodium falciparum, UniProt P62344)
EPHX2: Bifunctional epoxide hydrolase 2 (EPHX2, Homo sapiens, UniProt P34913)
gag-pol integrase: Gag-Pol polyprotein, integrase (gag-pol, Human immunodeficiency virus 1, UniProt P12497)

Substance	target	assay	test system	conditions	IC50
O=C(OC(C(F)(F)F)C(F)(F)F)N1CCC(Cn2ccc3c(F)cccc32)CC1	MGLL	enzyme activity, inhibitor	–	–	0.5 µM
O=C(O)c1cc(O)c(O)c(O)c1	Tpo	tyrosine iodination, LC-MS/MS	rat thyroid microsomes	with: KI 300 µM, H2O2 40 µM	0.96 µM
O=C(NNC(=O)c1ccc(CNS(=O)(=O)c2ccc(F)c(Cl)c2)cc1)c1ccccc1	Glutamate NMDA receptor; Grin1/Grin2a (Grin1/Grin2a, Rattus norvegicus, UniProt P35439+Q00959, V783H)	ion current, two-electrode voltage clamp	–	oocytes	0.06 µM
COc1ccc2c(c1OC)C(=O)O[C@@H]2[C@H]1c2c(cc3c(c2OC)OCO3)CCN1C	CYP2C19	enzyme activity, inhibitor	human, liver microsomes	pH 7.4	5 µM and 5.7 µM
O=C(C=Cc1ccco1)Nc1cccc(-c2nnc(C3CCCCC3)o2)c1	α-amylase	enzyme activity, inhibitor	–	–	5.94 µM
C#CCOCCC(=O)NC(Cc1ccc(F)cc1)C(=O)NC(Cc1ccccc1)C(=O)NC(C=CC(=O)OCC)CC1CCNC1=O (stereo not drawn)	Replicase polyprotein 1ab, main protease (rep, Severe acute respiratory syndrome coronavirus 2, UniProt P0DTD1)	enzyme activity, inhibitor	–	–	0.7 µM
O=c1cc(-c2ccc(O)c(O)c2)oc2cc(O)cc(O)c12	UGT1A4 (Homo sapiens, UniProt P22310)	glucuronidation	pooled human liver microsomes	no preincubation	41 µM
CSc1ncc(Br)c(C(=O)N[C@@H](CCC(=O)O)C(=O)N[C@@H](Cc2ccc3ccccc3c2)C(=O)N[C@@H](CC(C)C)C(=O)NC2CC2c2ccccc2)n1 (stereo partly drawn)	APC (Homo sapiens, UniProt P25054)	ligand displacement, FP	–	–	0.5 µM
CC(C)Oc1ccc(-c2c[nH]cc2CN(C)CC(N)=O)cc1	PRMT8 (Homo sapiens, UniProt Q9NR22)	enzyme activity, scintillation proximity	–	with: 3H-SAM	> 10 µM
Nc1ncnc2c1ncn2[C@@H]1O[C@H](COP(=O)(O)OP(=O)(O)C(Cl)(Cl)P(=O)(O)O)[C@@H](O)[C@H]1O	FGFR2 (Homo sapiens, UniProt P21802)	enzyme activity, inhibitor, HotSpot kinase	–	with: ATP 1 µM	0.05 µM
COc1ccc(/C=C2/C(=O)c3ccccc3C2N2CCOCC2)cc1 (stereo not drawn)	Dual specificity protein phosphatase 6 (Homo sapiens, UniProt Q16828)	ERK phosphorylation restoration, inhibitor, chemical complementation	HeLa transfected with c-Myc-DUSP6	15 min, with: TPA	> 100 µM
CSc1ccc(/C=C2/C(C)=C(CC(=O)O)c3cc(F)ccc32)cc1	PDE3A (Homo sapiens, UniProt Q14432)	enzyme activity, inhibitor, FP	–	–	84 µM
Cc1nc2ccccc2n1Cc1ccc(C(=O)NO)cc1	HDAC10 (Homo sapiens, UniProt Q969S8)	–	–	concentration not given	12 µM
O=C1c2cc3c(cc2-c2c1c1ccc(F)cc1c(=O)n2CCCNCCO)OCO3	TDP1 (Homo sapiens, UniProt Q9NUW8)	enzyme activity, inhibitor	–	–	8.7 µM and 11.2 µM
CC(C)COc1cccc(CC(=O)N2CCNc3nc(C(F)(F)F)ccc3[C@H]2CC(=O)O)c1	Neuromedin-B receptor (Nmbr, Mus musculus, UniProt O54799)	radioligand binding	BALB cells expressing mouse NMBR	60 min, 21 °C, with: 50 pM radioligand	> 3 µM
COCC(=O)O[C@]1(CCN(C)CCCc2nc3ccccc3[nH]2)CCc2cc(F)ccc2[C@@H]1C(C)C	Voltage-dependent P/Q-type calcium channel subunit alpha-1A, with β4/α2δ1 (Homo sapiens, UniProt O00555)	calcium current, blocker, automated patch clamp	–	tonic block, holding -90 mV	4 ± 1.1 µM
benzamide	HDAC6 (Homo sapiens, UniProt Q9UBN7)	enzyme activity, inhibitor, fluorogenic deacetylase	–	with: acetyl-lysine tripeptide-AMC substrate	> 30 µM
CCCS(=O)(=O)Nc1ccc(-c2cc(-c3ccc(N4CCNCC4)cc3)cnc2C)cc1OC	RIPK2 (Homo sapiens, UniProt O43353)	kinase activity, inhibitor, ADP-Glo	–	tested up to 10 µM	> 10 µM
Cc1ccc(NC(=O)NC2(C(=O)N3CCN(c4ccccc4)CC3)CCCCC2)cc1	Endoplasmic reticulum aminopeptidase 1, open conformation (ERAP1, Homo sapiens, UniProt Q9NZ08)	enzyme activity, inhibitor, fluorogenic	–	partial inhibition, with: L-AMC substrate	> 200 µM
CC(C)[C@H](CO)Nc1nc(Nc2cc(N)cc(Cl)c2)c2ncn(C(C)C)c2n1	SRC (Homo sapiens, UniProt P12931)	enzyme activity, inhibitor, ADP detection	–	–	0.12 µM
COc1cc(/C=C/C(=O)CC(=O)/C=C/c2ccc(O)c(OC)c2)ccc1O	Tpo	enzyme activity, inhibitor, LC-MS/MS, item: monoiodotyrosine	rat thyroid microsomes	with: L-tyrosine substrate	1.53 µM and 1.59 µM
Nc1nc(=O)[nH]cc1F	Bifunctional epoxide hydrolase 2, N-terminal phosphatase domain (EPHX2, Homo sapiens, UniProt P34913)	phosphatase activity, inhibitor	–	–	> 100 µM
O=C(Nc1cccc(C(F)(F)F)c1)Nc1ccc(Br)cc1-c1nn[nH]n1	CACNA1I	inhibitor, FLIPR calcium	HEK293 with GCaMP6s-CAAX, Kir2.3	with: KCl at EC90	37 µM
CCOCCOc1ccc2cc(-c3cn(CC4CCN(C(C)=O)CC4)c4ncnc(N)c34)ccc2c1	CDPK1	enzyme activity, inhibitor	–	–	> 2 µM
OC1CCCc2ccc(OCc3ccc(Cl)cc3)cc21 (stereo not drawn)	MAOB (Homo sapiens, UniProt P27338)	enzyme activity, inhibitor, fluorescence	–	–	0.039 µM
C[C@]12C[C@@H]3C[C@](C)(C1)C[C@@](Nc1c(Nc4ccc(CN5CCC[C@H](C(=O)NCCCCCC(=O)NO)C5)cc4F)c(=O)c1=O)(C3)C2	EPHX2	enzyme activity, inhibitor, fluorescence	–	–	0.157 µM

Substance	target	assay	test system	conditions	IC50
CCOc1ccc2cc(-c3cn(CC4CCN(C(C)=O)CC4)c4ncnc(N)c34)ccc2c1	CDPK1	enzyme activity, inhibitor	–	–	> 2 µM
C[C@]12C[C@@H]3C[C@](C)(C1)C[C@@](NC(=O)Nc1ccc(C(=O)N4CCC[C@H](C(=O)NCCCCCCC(=O)NO)C4)cc1Cl)(C3)C2	EPHX2	enzyme activity, inhibitor, fluorescence	–	–	0.0005 µM
O=C1C=C2CC3(O)COc4c(ccc(O)c4O)C3=C2C=C1O (stereo not drawn)	firefly luciferase	ADP-Glo ADP processing, luminescence counter-screen	cell-free, no kinase	up to 77 µM, with: ADP 1.25 µM, ATP 11.25 µM	no inhibition
Fc1ccc(CN(CC(F)(F)F)C2CCN(CCCc3c[nH]c4ccc(Cn5cncn5)cc34)CC2)cc1	CACNA1I	inhibitor, FLIPR calcium	HEK293 with GCaMP6s-CAAX, Kir2.3	with: KCl at EC90	0.0026 µM
hemin	Membrane-associated progesterone receptor component 2 (Homo sapiens, UniProt O15173)	probe labelling, gel-based competition	transfected HEK-293T cell lysate	–	40 µM
O=c1c(O)c(-c2cc(O)c(O)c(O)c2)oc2cc(O)cc(O)c12	firefly luciferase	luminescence signal, luminescence counter-screen	cell-free, after ADP processing	up to 77 µM, with: ADP 1.25 µM, ATP 11.25 µM	no inhibition
CC(C)NCc1ccc(C[C@@H]2NC(=O)[C@H](N(C)C(=O)c3ccc4ccccc4c3)NC(=O)[C@H](Cc3ccccc3)NC(=O)[C@H](N)CSSC[C@@H](C(=O)N[C@@H](Cc3ccc4ccccc4c3)C(N)=O)NC(=O)[C@H](Cc3ccccc3)NC2=O)cc1	SSTR1 (Homo sapiens, UniProt P30872)	ligand displacement, radioligand	–	cell membranes	0.316 µM and 0.267 µM
CS(=O)(=O)c1cccc(C[C@H](NC(=O)c2c(Cl)cc3c(c2Cl)CCN(C(=O)Cc2ccc4occc4c2)C3)C(=O)O)c1	Integrin alpha-L, with integrin beta-2 (ITGAL, Homo sapiens, UniProt P20701)	cell adhesion, antagonist	Jurkat	with: ICAM-1	3.14 µM
C[C@]12C[C@@H]3C[C@](C)(C1)C[C@@](NC(=O)Nc1ccc(C(=O)N4CCC[C@H](C(=O)NCCCCCCC(=O)NO)C4)cc1F)(C3)C2	EPHX2	enzyme activity, inhibitor, fluorescence	–	–	0.0003 µM
Cc1cc(C)c2nc(-c3ccccn3)cc(C(=O)Nc3ccc(S(=O)(=O)Nc4onc(C)c4C)cc3)c2c1	GPR55 (Homo sapiens, UniProt Q9Y2T6)	ERK1/2 phosphorylation, antagonist	U2OS cells expressing GPR55	30 min, with: LPI 10 µM	0.2 ± 0.3 µM
Cc1ccc(C(=O)Nc2ccc(S(=O)(=O)O)c3cc(S(=O)(=O)O)cc(S(=O)(=O)O)c23)cc1NC(=O)c1cccc(NC(=O)Nc2cccc(C(=O)Nc3cc(C(=O)Nc4ccc(S(=O)(=O)O)c5cc(S(=O)(=O)O)cc(S(=O)(=O)O)c45)ccc3C)c2)c1	Thiosulfate sulfurtransferase (TST, Bos taurus, UniProt P00586)	enzyme activity, inhibitor	–	Rho counter-screen	> 100 µM
O=C(COc1ccc(Cl)c2ccccc12)Nc1cc(Cl)ccc1C(=O)O	TRPM4 (Homo sapiens, UniProt Q8TD43)	ion flux, inhibitor, fluorescence	–	–	2.2 µM
O=C(OC(C(F)(F)F)C(F)(F)F)N1CCC(CCCCn2ccc3ccc(F)cc32)CC1	MGLL	enzyme activity, inhibitor	–	–	0.45 µM
CC12CC3CC(C)(C1)CC(Nc1c(Nc4ccc(C(=O)N5CCC[C@H](C(=O)NCCCCCCC(=O)NO)C5)cc4)c(=O)c1=O)(C3)C2	EPHX2	enzyme activity, inhibitor, fluorescence	–	–	0.14 µM
COC(=O)CCO[C@@H]1CC(=O)[C@@]2(C)CC[C@@H]3c4ccc(OC)cc4CC[C@H]3[C@H]12	HSD17B1 (Homo sapiens, UniProt P14061)	enzyme activity, inhibitor, radiometric	–	–	2.2 to 5.1 µM
COc1ccc(CCN(C)CCCOc2ccc(S(=O)(=O)c3c(C(C)C)c4ccccc4n3C)cc2)cc1OC	CACNA1I	inhibitor, FLIPR calcium	HEK293 with GCaMP6s-CAAX, Kir2.3	with: KCl at EC90	4.7 µM
O=C(O)/C(O)=C/C(=O)c1c[nH]c2cc(Cl)ccc2c1=O	gag-pol integrase	3'-processing, inhibitor, gel-based	–	with: Mg2+	> 333 µM
Cc1ccc(C(=O)Nc2cccc(-c3nnc(C4CCCCC4)o3)c2)cc1	α-amylase	enzyme activity, inhibitor	–	–	5.93 µM
Oc1ccc(OCc2ccccc2)cc1	Tpo	tyrosine iodination, LC-MS/MS	rat thyroid microsomes	with: KI 300 µM, H2O2 40 µM	8.55 µM
Cc1ncc([N+](=O)[O-])n1CC(C)O (stereo not drawn)	CYP2C19	enzyme activity, inhibitor	human liver microsomes	30 min, with: (S)-mephenytoin	> 1000 µM
CN1C[C@H](CNC(=O)OCc2ccccc2)C[C@@H]2c3cccc4c3c(cn4C)C[C@H]21	human MBNL1	CUG repeat RNA binding, inhibitor, HTRF	–	with: biotin-(CUG)12 RNA	25.1 µM
COc1ccc2c(ccn2CC2CCN(C(=O)OC(C(F)(F)F)C(F)(F)F)CC2)c1	MGLL	enzyme activity, inhibitor	–	–	0.66 µM
C=CC(C)(C)c1cc(-c2oc3cc(O)ccc3c2Cc2cc(-c3cc4cc(C(C)(C)C=C)c(O)cc4oc3=O)c(O)cc2O)c(O)cc1O	RELA (Homo sapiens, UniProt Q04206)	NF-κB activity, inhibitor	–	–	1.5 µM
Cc1cc(C(=O)N[C@@H](CC(=O)NC(C)(C)C)C(=O)N[C@@H](C)CC(=O)NCc2cccc3ccccc23)no1	Proteasome component C5/PSMB5 (Homo sapiens, UniProt P20618+P28074)	chymotrypsin-like activity, inhibitor	–	with: suc-LLVY-AMC	88.4 ± 5.81 µM
CCOC(=O)/C(O)=C/C(=O)c1cn(Cc2ccc(F)cc2)c2cc(F)ccc2c1=O	gag-pol integrase	strand transfer, inhibitor, gel-based	–	with: Mg2+	2.9 µM

Some of these lines once more:
Substance	target	assay	test system	conditions	IC50
Cc1cc(C(=O)N[C@@H](CC(=O)NC(C)(C)C)C(=O)N[C@@H](C)CC(=O)NCc2cccc3ccccc23)no1	Proteasome component C5/PSMB5 (Homo sapiens, UniProt P20618+P28074)	chymotrypsin-like activity, inhibitor	–	with: suc-LLVY-AMC	88.4 ± 5.81 µM
C=CC(C)(C)c1cc(-c2oc3cc(O)ccc3c2Cc2cc(-c3cc4cc(C(C)(C)C=C)c(O)cc4oc3=O)c(O)cc2O)c(O)cc1O	RELA (Homo sapiens, UniProt Q04206)	NF-κB activity, inhibitor	–	–	1.5 µM
CCOCCOc1ccc2cc(-c3cn(CC4CCN(C(C)=O)CC4)c4ncnc(N)c34)ccc2c1	CDPK1	enzyme activity, inhibitor	–	–	> 2 µM
O=C1c2cc3c(cc2-c2c1c1ccc(F)cc1c(=O)n2CCCNCCO)OCO3	TDP1 (Homo sapiens, UniProt Q9NUW8)	enzyme activity, inhibitor	–	–	8.7 µM and 11.2 µM
C[C@]12C[C@@H]3C[C@](C)(C1)C[C@@](Nc1c(Nc4ccc(CN5CCC[C@H](C(=O)NCCCCCC(=O)NO)C5)cc4F)c(=O)c1=O)(C3)C2	EPHX2	enzyme activity, inhibitor, fluorescence	–	–	0.157 µM
